Measurements gathered from unrelated publications.
Compare with care: the assays were run in different laboratories. Several values in a cell are separate wells, animals, samples, runs or records. ± gives the spread as reported.
Chain of UniProt P81908 (whole entry, looked up): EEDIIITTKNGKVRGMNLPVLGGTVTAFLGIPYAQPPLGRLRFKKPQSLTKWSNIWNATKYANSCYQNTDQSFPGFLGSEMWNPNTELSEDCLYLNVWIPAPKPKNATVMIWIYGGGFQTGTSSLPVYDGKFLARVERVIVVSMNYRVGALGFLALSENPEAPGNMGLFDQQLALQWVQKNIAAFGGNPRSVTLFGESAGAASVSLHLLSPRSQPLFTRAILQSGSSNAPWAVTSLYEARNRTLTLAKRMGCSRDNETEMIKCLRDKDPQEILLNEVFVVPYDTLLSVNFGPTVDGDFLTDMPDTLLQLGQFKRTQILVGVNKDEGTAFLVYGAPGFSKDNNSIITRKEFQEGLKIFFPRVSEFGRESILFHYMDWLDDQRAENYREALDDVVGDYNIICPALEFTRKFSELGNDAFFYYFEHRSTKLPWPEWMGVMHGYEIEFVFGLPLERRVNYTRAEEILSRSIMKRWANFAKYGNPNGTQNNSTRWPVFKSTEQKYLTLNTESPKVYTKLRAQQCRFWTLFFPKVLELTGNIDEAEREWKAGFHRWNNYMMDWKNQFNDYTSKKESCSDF
Chain of UniProt P14650 (whole entry, looked up): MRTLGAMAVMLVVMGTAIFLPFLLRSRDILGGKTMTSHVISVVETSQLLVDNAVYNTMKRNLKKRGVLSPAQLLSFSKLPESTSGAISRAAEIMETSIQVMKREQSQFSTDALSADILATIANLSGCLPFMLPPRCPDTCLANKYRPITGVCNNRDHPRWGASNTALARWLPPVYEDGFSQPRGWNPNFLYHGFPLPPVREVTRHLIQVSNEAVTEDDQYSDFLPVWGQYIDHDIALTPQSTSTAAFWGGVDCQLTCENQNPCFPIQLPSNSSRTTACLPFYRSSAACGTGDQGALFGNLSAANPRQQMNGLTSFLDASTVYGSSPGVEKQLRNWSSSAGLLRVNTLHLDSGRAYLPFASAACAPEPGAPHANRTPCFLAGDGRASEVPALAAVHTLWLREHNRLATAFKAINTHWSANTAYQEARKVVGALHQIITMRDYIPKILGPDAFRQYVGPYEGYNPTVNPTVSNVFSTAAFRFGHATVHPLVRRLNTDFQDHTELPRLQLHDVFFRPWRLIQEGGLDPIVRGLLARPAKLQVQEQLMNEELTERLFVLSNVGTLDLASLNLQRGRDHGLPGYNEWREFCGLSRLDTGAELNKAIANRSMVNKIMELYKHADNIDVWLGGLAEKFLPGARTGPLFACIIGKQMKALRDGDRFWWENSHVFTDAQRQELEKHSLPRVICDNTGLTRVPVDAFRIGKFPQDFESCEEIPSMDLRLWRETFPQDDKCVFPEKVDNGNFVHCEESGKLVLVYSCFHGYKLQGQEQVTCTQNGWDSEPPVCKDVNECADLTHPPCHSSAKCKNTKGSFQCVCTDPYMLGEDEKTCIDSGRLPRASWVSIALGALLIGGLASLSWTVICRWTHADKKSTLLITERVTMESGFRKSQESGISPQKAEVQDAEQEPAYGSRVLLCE
Chain of UniProt Q8NET8 (whole entry, looked up): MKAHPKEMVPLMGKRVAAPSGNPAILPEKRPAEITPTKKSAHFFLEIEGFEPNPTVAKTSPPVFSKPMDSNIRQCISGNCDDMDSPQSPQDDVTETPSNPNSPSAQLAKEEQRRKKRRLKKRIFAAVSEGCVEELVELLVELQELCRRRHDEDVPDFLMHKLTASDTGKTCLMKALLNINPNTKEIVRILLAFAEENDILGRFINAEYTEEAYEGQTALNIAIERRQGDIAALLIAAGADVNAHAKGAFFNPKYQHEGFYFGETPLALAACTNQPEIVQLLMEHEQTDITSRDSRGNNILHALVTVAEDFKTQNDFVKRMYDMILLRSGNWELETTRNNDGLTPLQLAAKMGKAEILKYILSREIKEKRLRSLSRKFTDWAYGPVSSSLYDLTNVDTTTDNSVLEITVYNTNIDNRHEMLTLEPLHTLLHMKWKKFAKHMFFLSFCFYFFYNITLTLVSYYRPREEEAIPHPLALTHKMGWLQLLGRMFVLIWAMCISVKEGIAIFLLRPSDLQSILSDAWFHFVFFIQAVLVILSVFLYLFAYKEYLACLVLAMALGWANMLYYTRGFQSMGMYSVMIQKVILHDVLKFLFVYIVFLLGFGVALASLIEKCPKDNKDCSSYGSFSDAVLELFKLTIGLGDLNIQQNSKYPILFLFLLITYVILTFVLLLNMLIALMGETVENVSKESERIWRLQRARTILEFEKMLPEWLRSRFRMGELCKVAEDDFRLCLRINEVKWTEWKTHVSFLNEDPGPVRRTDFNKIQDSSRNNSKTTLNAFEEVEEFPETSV
Chain of UniProt Q2PAY2 (whole entry, looked up): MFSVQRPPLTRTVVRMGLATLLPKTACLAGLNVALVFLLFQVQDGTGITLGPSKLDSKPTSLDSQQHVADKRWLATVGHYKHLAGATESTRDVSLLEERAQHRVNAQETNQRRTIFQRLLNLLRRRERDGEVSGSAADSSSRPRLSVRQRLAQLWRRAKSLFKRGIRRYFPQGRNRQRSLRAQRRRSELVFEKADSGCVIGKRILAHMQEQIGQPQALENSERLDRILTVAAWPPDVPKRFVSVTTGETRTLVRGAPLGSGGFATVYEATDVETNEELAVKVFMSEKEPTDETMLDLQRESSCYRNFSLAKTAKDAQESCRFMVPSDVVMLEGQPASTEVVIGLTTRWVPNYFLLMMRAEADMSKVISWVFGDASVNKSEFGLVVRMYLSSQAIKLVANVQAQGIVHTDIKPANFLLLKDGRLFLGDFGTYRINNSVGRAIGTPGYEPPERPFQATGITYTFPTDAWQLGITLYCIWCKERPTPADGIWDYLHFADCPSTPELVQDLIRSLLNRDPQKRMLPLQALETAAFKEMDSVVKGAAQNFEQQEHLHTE
Chain of UniProt P17706 (whole entry, looked up): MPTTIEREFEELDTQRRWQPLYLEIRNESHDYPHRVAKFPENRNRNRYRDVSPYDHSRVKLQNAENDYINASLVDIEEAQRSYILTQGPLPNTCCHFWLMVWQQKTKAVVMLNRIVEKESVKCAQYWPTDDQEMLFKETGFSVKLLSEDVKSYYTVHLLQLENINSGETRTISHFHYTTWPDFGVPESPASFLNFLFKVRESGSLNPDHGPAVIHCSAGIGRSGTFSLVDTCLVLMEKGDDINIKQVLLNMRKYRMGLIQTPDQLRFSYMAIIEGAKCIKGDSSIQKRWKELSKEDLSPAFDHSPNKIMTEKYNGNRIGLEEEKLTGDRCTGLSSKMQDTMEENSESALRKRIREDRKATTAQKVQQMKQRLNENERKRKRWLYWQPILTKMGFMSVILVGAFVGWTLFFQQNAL
Chain of UniProt Q9Y6L6 (whole entry, looked up): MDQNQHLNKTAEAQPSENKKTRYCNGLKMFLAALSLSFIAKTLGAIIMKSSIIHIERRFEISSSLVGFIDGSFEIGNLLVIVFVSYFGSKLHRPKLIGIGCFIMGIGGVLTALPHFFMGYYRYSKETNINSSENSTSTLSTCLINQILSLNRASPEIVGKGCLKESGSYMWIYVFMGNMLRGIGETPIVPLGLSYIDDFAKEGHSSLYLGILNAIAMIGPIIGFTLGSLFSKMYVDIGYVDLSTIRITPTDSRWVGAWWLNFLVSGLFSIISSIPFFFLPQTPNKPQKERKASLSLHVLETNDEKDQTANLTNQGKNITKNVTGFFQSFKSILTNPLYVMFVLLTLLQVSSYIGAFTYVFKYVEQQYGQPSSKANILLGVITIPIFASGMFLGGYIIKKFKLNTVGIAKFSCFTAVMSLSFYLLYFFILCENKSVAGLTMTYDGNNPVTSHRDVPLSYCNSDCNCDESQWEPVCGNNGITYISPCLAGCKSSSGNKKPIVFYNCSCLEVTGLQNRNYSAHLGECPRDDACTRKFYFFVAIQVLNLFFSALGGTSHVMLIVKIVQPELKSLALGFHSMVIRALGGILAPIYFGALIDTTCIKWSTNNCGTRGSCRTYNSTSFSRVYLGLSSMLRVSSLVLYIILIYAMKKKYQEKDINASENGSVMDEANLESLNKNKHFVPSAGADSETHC
Chain of UniProt P06276 (whole entry, looked up): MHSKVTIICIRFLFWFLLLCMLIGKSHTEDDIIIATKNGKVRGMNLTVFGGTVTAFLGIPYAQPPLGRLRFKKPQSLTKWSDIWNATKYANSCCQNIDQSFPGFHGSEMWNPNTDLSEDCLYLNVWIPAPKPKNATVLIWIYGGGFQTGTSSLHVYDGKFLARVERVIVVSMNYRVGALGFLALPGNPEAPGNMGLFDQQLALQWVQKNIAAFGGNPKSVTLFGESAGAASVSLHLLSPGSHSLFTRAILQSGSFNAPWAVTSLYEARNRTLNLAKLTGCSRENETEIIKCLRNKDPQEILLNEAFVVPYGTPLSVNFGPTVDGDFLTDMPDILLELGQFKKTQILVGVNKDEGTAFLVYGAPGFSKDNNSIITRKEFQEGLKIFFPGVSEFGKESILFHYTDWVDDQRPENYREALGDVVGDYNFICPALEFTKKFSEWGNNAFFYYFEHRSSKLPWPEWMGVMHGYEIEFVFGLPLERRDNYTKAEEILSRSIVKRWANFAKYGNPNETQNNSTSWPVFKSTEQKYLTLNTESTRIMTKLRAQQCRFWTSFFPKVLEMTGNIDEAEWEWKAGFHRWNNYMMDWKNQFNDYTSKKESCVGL

The IC50 of `CC[C@H](C)[C@H](NC(=O)[C@H](CCCNC(=N)N)NC(=O)[C@H](CO)NC(=O)[C@H](CC(C)C)NC(=O)[C@H](CCCNC(=N)N)NC(=O)[C@H](CCSC)NC(=O)[C@H](C)N)C(=O)N[C@@H](Cc1ccccc1)C(=O)N[C@@H](CCCNC(=N)N)C(=O)N[C@@H](CC(=O)O)C(=O)N[C@@H](Cc1ccccc1)C(=O)N[C@@H](CC(C)C)C(=O)N[C@@H](CC(C)C)C(=O)N[C@@H](CCC(N)=O)C(=O)N[C@@H](CCCNC(=N)N)C(=O)N[C@@H](CCCCN)C(=O)N[C@@H](CCCCN)C(=O)O` is reported as greater than 1000 nM (histidine kinase ComD (Streptococcus pneumoniae serotype 4, UniProt A0A0H2US84); Streptococcus pneumoniae).
`CCCCCCCC(=O)OC[C@H](COP(=O)(O)O[C@@H]1[C@H](O)[C@H](O)[C@@H](OP(=O)(O)O)[C@H](OP(=O)(O)O)[C@H]1O)OC(=O)CCCCCCC` gave an IC50 of ~10000 nM and 10000 nM (TRPV3 (Homo sapiens, UniProt Q8NET8); channel activity, inhibitor, inside-out patch clamp; HM1 cells expressing target; holding potential +80 mV, together with: PI-PLC 0.5 U/mL).
`NC(=S)Nc1ccccc1` has an IC50 of 3510 nM and 2170 nM (Thyroid peroxidase (Tpo, Rattus norvegicus, UniProt P14650); enzyme activity, inhibitor, LC-MS/MS, measured: monoiodotyrosine; rat thyroid microsomes; together with: L-tyrosine substrate).
For `CC(C)c1ccc2c(c1)c(SC(C)(C)C)c(CC(C)(C)C(=O)O)n2Cc1ccc(Cl)cc1`, the IC50 was 59800 ± 18500 nM (DNA polymerase Dpo1 exonuclease-deficient; primer extension, inhibitor; Saccharolobus solfataricus).
`CC1=C(C(=O)NC(=O)c2cnccn2)C(c2cccc(Cl)c2)NC(=S)N1` (stereo not shown) gave an IC50 of 4310 ± 10 nM (Cholinesterase (BCHE, Equus caballus, UniProt P81908)).
`Cn1cc(C2=C(c3cn(CCCN)c4ccccc34)C(=O)NC2=O)c2ccccc21` gave an IC50 of 1550 nM (Putative glycogen synthase kinase (Leishmania major, UniProt Q4QE15, D105E); enzyme activity, inhibitor; 90 min, 30 °C, together with: ATP 2 µM).
For `OCC[S+](CCO)C[C@@H](O)[C@@H](O)CO`, the IC50 was greater than 380000 nM (Si (Rattus norvegicus, UniProt P23739); isomaltase activity, inhibitor; rat intestinal brush border vesicles; 30 min, pH 6.0, 37 °C, together with: substrate 7.4 mM).
With `COC(=O)[C@@]1(O)C[C@H]2O[C@]1(C)n1c3ccccc3c3c4c(c5c6ccccc6n2c5c31)C(=O)NC4` the IC50 was 59 nM (ROP18 (Toxoplasma gondii, UniProt Q2PAY2); kinase activity, inhibitor; 3 h, room temperature, together with: peptide FL-T 1 µM, 60 µM ATP).
For `CCCc1nn(C)c2c(=O)[nH]c(-c3cc(S(=O)(=O)N4CCN(C)CC4)ccc3OCC)nc12`, the IC50 was 13300 ± 2200 nM (SLCO1B1 (Homo sapiens, UniProt Q9Y6L6); transport, inhibitor; 10 (unit not given), pre-incubation, together with: estrone-3-sulfate).
For `O=C([O-])[C@H]([O-])[C@@H]([O-])C(=O)[O-].O=C([O-])[C@H]([O-])[C@@H]([O-])C(=O)[O-].[K+].[K+].[Sb+3].[Sb+3]`, the IC50 was 9 nM (Thioredoxin glutathione reductase (Schistosoma mansoni, UniProt Q962Y6); DTNB reduction, inhibitor; 10 min preincubation with NADPH, together with: 3 mM DTNB).
With `C[C@@H]1CC[C@@]2(OC1)O[C@H]1[C@@H](O)[C@H]3[C@@H]4CC[C@H]5C[C@@H](O[C@@H]6O[C@H](CO)[C@H](O[C@@H]7O[C@H](CO)[C@@H](O)[C@H](O[C@@H]8OC[C@@H](O)[C@H](O)[C@H]8O)[C@H]7O[C@@H]7O[C@H](CO)[C@H](O)[C@H](O[C@@H]8O[C@H](CO)[C@@H](O)[C@H](O)[C@H]8O)[C@H]7O)[C@H](O)[C@H]6O)[C@H](O)C[C@]5(C)[C@H]4CC[C@]3(C)[C@H]1[C@@H]2C` the IC50 was 40000 nM (KCNH2 (Homo sapiens, UniProt Q12809); ion current, inhibitor, thallium influx; 10 (unit not given)).
`NC(Cc1cc(O)c(O)cc1O)C(=O)O` (racemic) gave an IC50 of 13000 ± 3500 nM (Trypanothione synthetase (Trypanosoma brucei brucei, UniProt Q586P2); enzyme activity, BIOMOL Green phosphate release; 1 h preincubation).
With `O=C1C=Cc2ccccc2C1=O` the IC50 was 53 nM (PTPN2 (Homo sapiens, UniProt P17706); enzyme activity; 10 min preincubation).
`CC(=O)OC[C@H]1O[C@@H]([S-])[C@H](OC(C)=O)[C@@H](OC(C)=O)[C@@H]1OC(C)=O.CCP(CC)CC.[Au+]` gave an IC50 of 1680 nM (ERRα (human); reporter gene, antagonist, luciferase reporter qHTS).
`C#CCN1CCN(CCCOc2cccc3ccc(C=O)nc23)CC1` gave an IC50 of 1.5 nM (Cholinesterase (BCHE, Homo sapiens, UniProt P06276); enzyme activity, inhibitor, Ellman).
With `O=C(NCCCCCn1ccc2ccc(F)cc21)Oc1ccc(C(=O)O)cc1` the IC50 was 970 nM (Cholinesterase (BCHE, Equus caballus, UniProt P81908); enzyme activity, inhibitor, HPLC).

For quick reference, copied from above:
With `O=C1C=Cc2ccccc2C1=O` the IC50 was 53 nM (PTPN2 (Homo sapiens, UniProt P17706); enzyme activity; 10 min preincubation).
`Cn1cc(C2=C(c3cn(CCCN)c4ccccc34)C(=O)NC2=O)c2ccccc21` gave an IC50 of 1550 nM (Putative glycogen synthase kinase (Leishmania major, UniProt Q4QE15, D105E); enzyme activity, inhibitor; 90 min, 30 °C, together with: ATP 2 µM).
